Assay results from different studies.
Each numbered part is a random draw from the data of one study; scales do not carry over between parts.

Block 1
Target: Interferon regulatory factor 7, full length, phosphomimetic (IRF7, Homo sapiens, UniProt Q92985, residues 1-503, S101K/S471D/S472D/S475D/S476D/S477D/S483D/S484D/S487D)
Method: protein-binding microarray
Form: double-stranded DNA, one strand shown
Sample: in vitro
Concentration: 250 nM
Setting: 60-bp whole probe
Together with: salmon DNA 0.4 mg/ml
Relative to: random background probes
Reading: higher = stronger binding
Shared flanks, not repeated: GCCTAGCAC … GTCTTGATTCGCTTGACGCTGCTG
Residues (chain): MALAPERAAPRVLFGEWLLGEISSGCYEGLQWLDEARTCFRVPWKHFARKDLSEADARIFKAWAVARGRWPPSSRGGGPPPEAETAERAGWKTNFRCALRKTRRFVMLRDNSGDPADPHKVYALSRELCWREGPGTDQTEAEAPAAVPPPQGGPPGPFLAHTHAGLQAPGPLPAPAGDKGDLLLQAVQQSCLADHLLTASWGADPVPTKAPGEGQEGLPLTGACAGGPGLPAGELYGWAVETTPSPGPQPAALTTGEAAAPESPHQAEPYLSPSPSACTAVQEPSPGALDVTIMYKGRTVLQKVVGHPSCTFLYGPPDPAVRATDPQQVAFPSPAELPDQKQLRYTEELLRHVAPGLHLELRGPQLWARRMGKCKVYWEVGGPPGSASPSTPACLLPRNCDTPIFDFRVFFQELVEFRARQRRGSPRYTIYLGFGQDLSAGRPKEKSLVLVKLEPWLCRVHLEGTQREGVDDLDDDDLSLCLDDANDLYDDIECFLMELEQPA
| Oligonucleotide | log fluorescence |
| --- | --- |
| TTAGATTTCAGGTTCGATTAGTGCTAG | 2.54 z-score |
| TCATTTCTGAATGTCCTACTGTGCTAG | 1.5 z-score |
| AACGATATCAGTCTCGAGACGTGCTAG | 0.723 z-score |
| GACGGTATCCTACTGCTGGCGTGCTAG | -0.232 z-score |
| GACGATTTCAATCTCGAGACGTGCTAG | 0.447 z-score |
| TTAGTTTTCGGTTCCGGTTAGTGCTAG | 8.23 z-score |
| TTAGATTTCGCGACTGGATTAGTGCTA | 0.296 z-score |
| GACGAACTGAGTTTCGAGGCGTGCTAG | 2.01 z-score |
| TTAGATTCCGGTTTCGGTTAGTGCTAG | 10.4 z-score |
| TCATTGTTCTCTCTGGCACTGTGCTAG | 0.477 z-score |
| TTAAGACTGGGACTGGGTTAGTGCTAG | -0.228 z-score |
| GAGGGACTGGACTTTCGGGACGTGCTA | -0.77 z-score |
| TTAGGTCTCGACTTTCGGTTAGTGCTA | 3.5 z-score |
| TCATAATTCTCTTTTCAACTGTGCTAG | 1.06 z-score |
| GACGGACTGGGTATAGGGACGTGCTAG | -0.529 z-score |
| GACGAGCTGAGTTTCGAGACGTGCTAG | 3.11 z-score |
| GACGGTATCGGGTATCGGCACGTGCTA | 0.293 z-score |
| CTGCATCTGATTTCTCAAACAGTGCTA | 0.244 z-score |
| TCAACTTTCACTTCTCCACTGTGCTAG | 2.32 z-score |
| TTAGAACTGGGACTGGGTTAGTGCTAG | -0.146 z-score |
| TTAGGACTGAGTCTCGATTAGTGCTAG | 1.34 z-score |
| GACGGTCTGGGGACTGGGGACGTGCTA | -0.427 z-score |
| GAAGGTTTCGGTATCGGGACGTGCTAG | 10.2 z-score |
| GACGATTTCGAGACTGGAGACGTGCTA | 0.568 z-score |
| TTAGGCTCCGGTTTCGGTTAGTGCTAG | 8.63 z-score |

Block 2
Target: Prothrombin, mature alpha-thrombin (F2, Homo sapiens, UniProt P00734)
Method: aptamer microarray, sandwich
Form: DNA with 2'F-ANA
Sample: in vitro
Concentration: 200 nM
Setting: whole 15-mer aptamer, many near background
Together with: Cy3 exosite-II aptamer, 400 nM
Reading: higher = stronger binding
Oligonucleotide: GGTTGGTGTGGTTGG
| Modification | mean fluorescence intensity [a.u.] |
| --- | --- |
| 2'F-ANA at 1 2 3 4 5 6 7 12 14 | 52.6 |
| 2'F-ANA at 2 3 4 7 11 14 15 | 335 |
| 2'F-ANA at 1 2 3 4 10 12 14 15 | 52.1 |
| 2'F-ANA at 2 3 4 5 6 13 14 | 47.5 |
| 2'F-ANA at 1 2 3 4 6 7 10 13 15 | 95.7 |
| 2'F-ANA at 1 2 3 5 6 7 8 9 12 14 | 50.6 |
| 2'F-ANA at 5 7 8 10 12 14 15 | 44.6 |
| 2'F-ANA at 6 9 10 11 13 14 15 | 92.5 |
| 2'F-ANA at 1 5 8 10 11 12 13 14 15 | 50.1 |
| 2'F-ANA at 3 4 6 8 10 14 15 | 162 |
| 2'F-ANA at 6 8 9 10 12 | 170 |
| 2'F-ANA at 2 3 7 9 13 15 | 654 |
| 2'F-ANA at 1 2 3 4 5 6 10 13 | 50.9 |
| 2'F-ANA at 2 4 6 7 14 15 | 101 |
| 2'F-ANA at 1 2 3 4 5 7 9 10 11 14 | 49.1 |
| 2'F-ANA at 1 3 4 6 10 11 12 14 15 | 53.4 |

Block 3
Target: RNA binding protein fox-1 homolog 2, RRM domain, GST-SBP tag (RBFOX2, Homo sapiens, UniProt O43251-10, residues 100-194)
Method: RNA Bind-n-Seq
Form: RNA
Sample: in vitro
Concentration: 365 nM
Setting: natural RNA segment, single round, ends assumed
Relative to: no-protein control
Reading: higher = stronger binding
Shared flanks, not repeated: GGGAGUUCUACAGUCCGACGAUC … UGGAAUUCUCGGGUGCCAA
Construct (chain): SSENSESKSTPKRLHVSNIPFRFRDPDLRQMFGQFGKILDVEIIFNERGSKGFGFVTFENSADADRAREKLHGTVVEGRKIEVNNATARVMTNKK
| Oligonucleotide | RBNS enrichment (R) |
| --- | --- |
| AGGAAAGACAAAAGACUUGAAGCACCGGGUGCAUGCUGUGUGUCACAAGUGAGGUGGAGAGUUGGCUGUGGAAGGUACAGCAAUUCCUCUGGAAUUAAAUGACCGACCAA | 3.97 |
| UAAGUUAAAGAAGACAAGUGUCAUCAGACACUUGGGACCCGGGCUCUCUUUAAAGUCUAGUCCCGGCAUUCCUCCAUGUGAUUGACAGCCAGACCUCUGGGUUCCCAGGA | 0.189 |
| UGUAGUCCCAGAGCCCGUCACAGCCCUUGUGGUUCAAGCUUCUUCUGCCUCUUUAGGAAGUGAGGGUUUCUUGUUCUCCUUUAAAAAUCAGUCUCUAGACUACGGCCAUC | 0.224 |
| UUUACAGGAGGUUGUGGAUGCUCCAGGGCAGCCUCCACCUUGCUCUUCUUUCUGAGAGUUGGCUCAGGCAGACAAGAGCUGCUGUCCUUUUAGGAAUAUGUUCAAUGCAA | 0.612 |
| UUGAGUCAAGCCUGUCCAGAGUUCCCCUGCUGGACUCCAUCACCACACUCCCCCCAGCCUUCACCUGGCCAUGAAGGACCUUUUGACCAACUCCCUGUCAUUCCUAACCU | 0.984 |
| AUUCAUUCAGCGAAUGCUCAAGACAAGCCAGGCAUGCUGAGAAGCGGCGCUCUAGUUGUAUGUAAGAUGGGCAUUCCUCUGCUCUCCUCUAUUCUCCAUGUCGACUGAGA | 0.386 |
| GGCUCCUCUGUCCCACUGCUGCUUCUUGAGUGGGUGGAGUGGUGCUUAGAGGAUCUCCGAGAGGUCCCCGCAGCUCUAGGGAGAUCUGAUUUUGUGUUUUUUGUUUAAGU | 4.63 |
| AGUCUUAUCAGCAAAUUACUCUGGCCACUCUUGGAGCUAGAUAUUUUCCAAAUUUUCUCUGAAGGUGAGUUUUAUAUCAAUAAGUAUGAAUAGAGAUUUACUUUAGGGGU | 0.56 |
| AGUCACUCAUGACUGGAGGAAACAGGCUUCCUCCACAAAAGUCUCUCUAUAAAAUAUAUAAAACACCAUUUCUUGUAACUUGCCCUUAACAUCCCAAAGCAUUCCACCAA | 0.884 |
| AGGCUUCUGAGGUACGGGGUCUUGCUGUGUGCUCUCUCUCCGUGCUGCCGUUAAGCCAAAACAAAAGCUGUGAACAUAGGUGCUUGAGAGAAUGCGUGUUGACAGGAAAG | 1.76 |
| AAGGCGUCAACAGGGGGCUGGAGAGAUGGCUCAGGAGUUAAGAGCCCUGACUGCUCUUCCACAGGUCCUGAGUUCAAUUCCCAGCAACCACAUGGUGGUUCCCAACCAUC | 0.301 |
| CACAGUGGAGAGGCCGGAAGUGAGACGGGCAGACGGCACCUGCAGCCUGAAACGCACCGCUCCUGCGUGCGCCCCCACCUGGUCCCCGGAUGCCCCCACCACCUGGACAG | 0.452 |

Block 4
Target: Ras GTPase-activating protein-binding protein 1, full length (G3BP1, Homo sapiens, UniProt Q13283)
Sequence of UniProt Q13283 (whole entry, looked up): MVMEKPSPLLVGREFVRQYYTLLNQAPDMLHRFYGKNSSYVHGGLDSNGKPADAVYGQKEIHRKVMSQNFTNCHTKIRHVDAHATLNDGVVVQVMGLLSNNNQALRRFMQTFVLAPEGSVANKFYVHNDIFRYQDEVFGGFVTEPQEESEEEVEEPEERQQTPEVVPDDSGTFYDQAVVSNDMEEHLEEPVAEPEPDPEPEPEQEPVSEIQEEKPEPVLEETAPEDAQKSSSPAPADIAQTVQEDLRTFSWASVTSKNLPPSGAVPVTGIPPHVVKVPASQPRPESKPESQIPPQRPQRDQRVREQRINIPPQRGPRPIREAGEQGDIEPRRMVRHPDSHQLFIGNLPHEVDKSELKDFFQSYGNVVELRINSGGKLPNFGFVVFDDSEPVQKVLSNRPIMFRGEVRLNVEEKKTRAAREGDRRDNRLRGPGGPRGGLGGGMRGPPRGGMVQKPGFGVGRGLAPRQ
Method: RNA Bind-n-Seq
Form: RNA
Sample: in vitro
Concentration: 200 nM
Setting: whole 134-nt RNA, ends assumed
Together with: 150 mM LiCl
Relative to: input library
Reading: higher = stronger binding
Library: 7-deaza-guanosine replaces G
Shared flanks, not repeated: GGGAGUUCUACAGUCCGACGAUC … UGGAAUUCUCGGGUGUCAAGG
| Oligonucleotide | log2 enrichment |
| --- | --- |
| CAAACUUAAAGUCUCCCUUGCUCGGAAGAAGCCUCCAAUGAACAGUAUGCGGGGUGGUCUGCCACCCCGUGAGGGCAGAGGCAUGCCACC | 1.03 |
| CCUCAAGUCCUGUGCUACACAUCGUAUGUACCGAAUCGGUUGGGUUGGUUGGGAAAGUAUUAUGUUACGCCGUUCGGAUCUGCACUUCCA | 0.256 |
| CAAGUCCUGUGCUACACAUCGUAUGUACCGAAUCGGAAAAAGGUUUUUUUGGUGGAAAGUAUUAUGUUACGCCGUUCGGAUCUGCACUUC | -1.56 |
| CCUGUGCUACACAUCGUAUGUACCGAAUCGGAAAAAAAGGAAAAAAAGGGAAAAAAAGGGAAAGUAUUAUGUUACGCCGUUCGGAUCUGC | -0.202 |
| CUCAAGUCCUGUGCUACACAUCGUAUGUACCGAAUCGGGGCGGGGCGGGCGGGAAAGUAUUAUGUUACGCCGUUCGGAUCUGCACUUCCA | -0.134 |
| UCCUGUGCUACACAUCGUAUGUACCGAAUCGGGGUUUUUUUGGGGUUUGGGGAAAGGGGAAAGUAUUAUGUUACGCCGUUCGGAUCUGCA | 0.00442 |
| UGUGCUACACAUCGUAUGUACCGAAUCGGGCCCCCCCGGGCCCCCCCGGGGCCCCCCCGGGGAAAGUAUUAUGUUACGCCGUUCGGAUCU | -0.213 |
| UCCUCAAGUCCUGUGCUACACAUCGUAUGUACCGAAUCGGGGCGGCGGCGGAAAGUAUUAUGUUACGCCGUUCGGAUCUGCACUUCCAGC | 0.455 |
| GGUAUUCUGCAAGUACUGUAGAUGUUAUAGAAAUGAUGGAGGAUGAUAAAGUUGAUCUGAAUUUGAUUGUUGCCCUCAUCCGAUACAUUG | -1.31 |
| GUCCUGUGCUACACAUCGUAUGUACCGAAUCGGGGAAAGGGGUGGGGAAAAAAAGGGGAAAGUAUUAUGUUACGCCGUUCGGAUCUGCAC | -0.569 |
| CACAGACAACACGCACCCACACAGACACAGAGGGAAGGGAAAGGGAUGGGGACAGGGUGCACAGCAGGGCGGGGUAGGACCCCAGCCCCU | -0.518 |

A few entries again (block 1):
| Oligonucleotide | log fluorescence |
| --- | --- |
| GACGATTTCGAGACTGGAGACGTGCTA | 0.568 z-score |
| GACGATTTCAATCTCGAGACGTGCTAG | 0.447 z-score |
| TCATAATTCTCTTTTCAACTGTGCTAG | 1.06 z-score |
